{"data": "Published values of several laboratories", "BACE1": "Beta-secretase 1 (BACE1, Homo sapiens, UniProt P56817)", "ampC": "Beta-lactamase (ampC, Escherichia coli K-12, UniProt P00811)", "note": "Compare with care: the assays were run in different laboratories. “And” joins repeats or separate records; there may be more than shown. ± marks the error that the study gave.", "sequence of UniProt P56817 (whole entry, looked up)": "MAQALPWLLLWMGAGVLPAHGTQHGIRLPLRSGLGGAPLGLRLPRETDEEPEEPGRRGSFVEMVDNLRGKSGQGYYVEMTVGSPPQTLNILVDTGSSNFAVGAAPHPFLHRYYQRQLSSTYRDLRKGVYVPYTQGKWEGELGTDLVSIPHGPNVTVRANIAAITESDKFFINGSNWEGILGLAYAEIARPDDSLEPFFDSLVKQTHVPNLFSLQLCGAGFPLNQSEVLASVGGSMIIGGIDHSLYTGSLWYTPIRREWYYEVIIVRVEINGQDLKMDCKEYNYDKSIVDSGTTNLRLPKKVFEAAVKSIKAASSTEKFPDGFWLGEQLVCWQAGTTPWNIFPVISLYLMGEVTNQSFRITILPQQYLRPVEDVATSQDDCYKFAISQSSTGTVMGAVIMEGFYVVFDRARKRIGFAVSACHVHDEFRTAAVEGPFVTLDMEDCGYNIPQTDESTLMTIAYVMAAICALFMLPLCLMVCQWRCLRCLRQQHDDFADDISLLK", "sequence of UniProt P00811 (whole entry, looked up)": "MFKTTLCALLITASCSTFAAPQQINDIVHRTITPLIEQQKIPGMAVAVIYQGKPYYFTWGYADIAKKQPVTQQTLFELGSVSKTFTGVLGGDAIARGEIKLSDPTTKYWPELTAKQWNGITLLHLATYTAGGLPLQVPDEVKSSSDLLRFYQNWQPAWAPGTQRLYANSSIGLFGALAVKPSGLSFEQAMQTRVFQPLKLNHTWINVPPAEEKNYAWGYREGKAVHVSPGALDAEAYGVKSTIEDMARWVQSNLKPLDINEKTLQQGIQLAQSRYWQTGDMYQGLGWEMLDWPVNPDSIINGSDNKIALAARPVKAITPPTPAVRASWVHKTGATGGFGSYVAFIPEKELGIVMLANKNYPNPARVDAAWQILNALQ", "sequence of UniProt P03372 (whole entry, looked up)": "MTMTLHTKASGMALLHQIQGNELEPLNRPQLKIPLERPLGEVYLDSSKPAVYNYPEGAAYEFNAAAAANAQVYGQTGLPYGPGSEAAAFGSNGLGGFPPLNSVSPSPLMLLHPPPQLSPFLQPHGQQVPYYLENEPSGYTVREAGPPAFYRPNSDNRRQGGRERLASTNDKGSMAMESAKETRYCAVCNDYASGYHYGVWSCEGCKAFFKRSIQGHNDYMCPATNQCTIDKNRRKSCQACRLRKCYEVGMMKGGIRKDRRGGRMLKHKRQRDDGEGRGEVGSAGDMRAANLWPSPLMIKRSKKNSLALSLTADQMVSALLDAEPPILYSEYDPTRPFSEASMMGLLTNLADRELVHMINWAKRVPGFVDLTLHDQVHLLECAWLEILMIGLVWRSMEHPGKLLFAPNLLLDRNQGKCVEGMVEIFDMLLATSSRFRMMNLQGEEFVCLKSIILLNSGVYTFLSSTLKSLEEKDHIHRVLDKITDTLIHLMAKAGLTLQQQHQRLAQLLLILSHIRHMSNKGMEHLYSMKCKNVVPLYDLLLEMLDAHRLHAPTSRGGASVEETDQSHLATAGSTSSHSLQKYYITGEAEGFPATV", "sequence of UniProt O15111 (whole entry, looked up)": "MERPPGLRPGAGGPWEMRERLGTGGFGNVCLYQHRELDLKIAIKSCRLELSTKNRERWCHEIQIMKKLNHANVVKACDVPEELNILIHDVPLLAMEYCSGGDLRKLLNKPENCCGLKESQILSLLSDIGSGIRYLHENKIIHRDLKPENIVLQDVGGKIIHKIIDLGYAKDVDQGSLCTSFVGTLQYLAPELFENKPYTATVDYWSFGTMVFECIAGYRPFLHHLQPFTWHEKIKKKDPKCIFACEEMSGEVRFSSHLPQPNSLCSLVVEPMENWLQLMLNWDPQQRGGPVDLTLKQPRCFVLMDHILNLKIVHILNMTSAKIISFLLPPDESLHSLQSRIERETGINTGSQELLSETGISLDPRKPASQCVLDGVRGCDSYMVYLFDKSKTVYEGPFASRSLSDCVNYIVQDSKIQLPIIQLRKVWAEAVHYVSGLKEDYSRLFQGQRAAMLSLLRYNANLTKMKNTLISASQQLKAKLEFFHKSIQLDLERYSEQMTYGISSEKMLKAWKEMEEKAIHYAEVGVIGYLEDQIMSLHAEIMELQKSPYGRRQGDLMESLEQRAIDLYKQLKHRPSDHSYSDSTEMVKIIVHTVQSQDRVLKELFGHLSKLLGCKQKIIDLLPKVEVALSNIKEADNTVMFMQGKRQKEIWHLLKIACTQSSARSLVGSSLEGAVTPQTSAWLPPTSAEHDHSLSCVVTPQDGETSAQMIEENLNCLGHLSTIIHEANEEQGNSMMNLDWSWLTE", "sequence of UniProt P11229 (whole entry, looked up)": "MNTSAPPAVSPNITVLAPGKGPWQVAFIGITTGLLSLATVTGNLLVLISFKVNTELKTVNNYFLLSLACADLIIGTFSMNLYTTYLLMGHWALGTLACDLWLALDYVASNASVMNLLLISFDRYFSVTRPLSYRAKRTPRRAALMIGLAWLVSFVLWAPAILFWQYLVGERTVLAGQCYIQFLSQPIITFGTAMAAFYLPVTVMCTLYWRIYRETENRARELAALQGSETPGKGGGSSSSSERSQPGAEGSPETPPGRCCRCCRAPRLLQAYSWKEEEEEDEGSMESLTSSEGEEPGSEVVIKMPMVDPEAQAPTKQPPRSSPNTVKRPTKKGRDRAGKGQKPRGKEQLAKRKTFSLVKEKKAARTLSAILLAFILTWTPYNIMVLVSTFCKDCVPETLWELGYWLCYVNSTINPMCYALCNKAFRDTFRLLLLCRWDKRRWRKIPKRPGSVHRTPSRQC", "sequence of UniProt P08191 (whole entry, looked up)": "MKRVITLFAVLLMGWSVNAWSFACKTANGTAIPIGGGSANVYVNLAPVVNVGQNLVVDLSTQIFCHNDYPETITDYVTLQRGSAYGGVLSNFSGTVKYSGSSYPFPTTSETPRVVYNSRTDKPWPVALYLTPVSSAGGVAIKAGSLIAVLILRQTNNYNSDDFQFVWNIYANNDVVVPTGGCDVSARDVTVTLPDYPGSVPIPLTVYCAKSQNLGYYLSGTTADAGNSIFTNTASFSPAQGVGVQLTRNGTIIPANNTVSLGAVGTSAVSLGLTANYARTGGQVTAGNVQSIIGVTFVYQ", "sequence of UniProt P18031 (whole entry, looked up)": "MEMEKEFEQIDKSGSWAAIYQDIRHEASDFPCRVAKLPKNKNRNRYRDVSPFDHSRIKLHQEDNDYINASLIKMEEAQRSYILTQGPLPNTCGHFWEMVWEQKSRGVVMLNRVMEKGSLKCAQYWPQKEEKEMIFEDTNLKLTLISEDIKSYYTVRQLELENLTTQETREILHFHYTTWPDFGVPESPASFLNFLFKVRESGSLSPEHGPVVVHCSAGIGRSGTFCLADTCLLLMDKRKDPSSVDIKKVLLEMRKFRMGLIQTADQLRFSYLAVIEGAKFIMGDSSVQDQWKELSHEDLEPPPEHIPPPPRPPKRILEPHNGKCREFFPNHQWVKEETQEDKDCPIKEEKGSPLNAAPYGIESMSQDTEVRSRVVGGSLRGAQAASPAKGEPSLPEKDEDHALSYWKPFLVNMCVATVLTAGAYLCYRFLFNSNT", "sequence of UniProt P00691 (whole entry, looked up)": "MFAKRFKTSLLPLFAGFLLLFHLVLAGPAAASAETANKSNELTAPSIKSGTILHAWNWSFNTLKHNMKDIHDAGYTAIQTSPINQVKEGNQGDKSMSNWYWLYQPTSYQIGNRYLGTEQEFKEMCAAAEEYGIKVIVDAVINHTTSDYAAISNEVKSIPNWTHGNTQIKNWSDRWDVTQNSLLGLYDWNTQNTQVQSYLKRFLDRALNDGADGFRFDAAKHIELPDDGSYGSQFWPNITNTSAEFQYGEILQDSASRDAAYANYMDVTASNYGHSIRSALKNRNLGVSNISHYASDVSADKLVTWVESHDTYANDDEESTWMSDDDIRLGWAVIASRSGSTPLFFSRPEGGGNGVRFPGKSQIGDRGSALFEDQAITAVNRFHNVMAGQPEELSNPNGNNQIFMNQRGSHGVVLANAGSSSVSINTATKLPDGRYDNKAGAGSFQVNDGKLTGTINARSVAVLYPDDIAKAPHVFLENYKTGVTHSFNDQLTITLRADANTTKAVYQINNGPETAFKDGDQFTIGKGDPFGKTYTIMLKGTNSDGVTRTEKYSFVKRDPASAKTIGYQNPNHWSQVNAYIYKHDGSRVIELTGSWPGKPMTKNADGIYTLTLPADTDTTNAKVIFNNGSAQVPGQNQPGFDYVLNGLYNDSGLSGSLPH", "sequence of UniProt Q01959 (whole entry, looked up)": "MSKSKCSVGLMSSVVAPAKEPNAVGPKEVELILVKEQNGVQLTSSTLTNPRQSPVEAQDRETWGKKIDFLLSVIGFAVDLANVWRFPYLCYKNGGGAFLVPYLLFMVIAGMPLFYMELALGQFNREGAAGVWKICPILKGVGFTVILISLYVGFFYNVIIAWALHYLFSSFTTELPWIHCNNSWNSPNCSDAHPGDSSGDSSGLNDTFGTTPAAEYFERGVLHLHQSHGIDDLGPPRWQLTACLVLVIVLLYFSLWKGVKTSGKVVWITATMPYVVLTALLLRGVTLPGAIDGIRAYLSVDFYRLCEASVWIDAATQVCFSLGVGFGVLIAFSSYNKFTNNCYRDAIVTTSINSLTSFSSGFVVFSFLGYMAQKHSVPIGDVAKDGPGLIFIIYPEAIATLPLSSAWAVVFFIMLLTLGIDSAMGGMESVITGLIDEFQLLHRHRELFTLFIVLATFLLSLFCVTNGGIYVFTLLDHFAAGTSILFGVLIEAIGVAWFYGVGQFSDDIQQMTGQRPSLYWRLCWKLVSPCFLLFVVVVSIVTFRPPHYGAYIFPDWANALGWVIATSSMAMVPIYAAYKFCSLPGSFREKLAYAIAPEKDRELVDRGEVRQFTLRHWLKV", "sequence of UniProt Q2FV99 (whole entry, looked up)": "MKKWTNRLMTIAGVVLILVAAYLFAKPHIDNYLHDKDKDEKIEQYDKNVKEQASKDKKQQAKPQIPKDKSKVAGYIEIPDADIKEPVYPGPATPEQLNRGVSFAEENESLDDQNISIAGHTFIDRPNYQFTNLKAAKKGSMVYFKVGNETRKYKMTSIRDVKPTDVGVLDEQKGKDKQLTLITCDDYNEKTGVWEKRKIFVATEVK"}
{"Structure (SMILES)": "CCCC[C@H](NC(=O)[C@H](CC(=O)O)NC(=O)[C@H](CC(=O)O)NC(=O)[C@H](CCC(=O)O)NC(=O)[C@H](Cc1ccc(OP(=O)(O)O)cc1)NC(=O)[C@H](CC(=O)O)NC(=O)[C@H](CC(=O)O)NC(=O)[C@H](CCC(=O)O)NC(=O)[C@H](CC(C)C)NC(=O)[C@H](CCC(=O)O)NC(=O)[C@H](CCC(=O)O)NC(=O)c1ccc2c(c1)C1(OC2=O)c2ccc(O)cc2Oc2cc(O)ccc21)C(=O)N[C@@H](CCC(=O)O)C(=O)N[C@@H](CCC(=O)O)C(N)=O", "target": "PTPN1 (Homo sapiens, UniProt P18031)", "assay": "substrate", "endpoint": "Km", "value": "0.77 ± 0.25 µM"}
{"Structure (SMILES)": "C=C(C)C(=O)Oc1ccc(C(C)(C)c2ccc(OC(=O)C(=C)C)cc2)cc1", "target": "Estrogen receptor (ESR1, Homo sapiens, UniProt P03372)", "assay": "reporter gene", "conditions": "together with: estradiol at EC40", "endpoint": "concentration enhancing estrogenic effect", "value": "5 µM and 10 µM"}
{"Structure (SMILES)": "CC(=O)Oc1ccc(COc2c(C)occc2=O)cc1", "target": "porcine liver esterase", "assay": "conversion", "conditions": "50 µM, pH 7.5, room temperature, together with: PLE 0.178 U", "endpoint": "kobs", "value": "245 ± 8 s⁻¹"}
{"Structure (SMILES)": "Cc1cccc(Nc2c3c(nc4ccccc24)CCCC3)n1", "target": "ache (Electrophorus electricus, UniProt O42275)", "assay": "enzyme activity, inhibitor, Ellman", "conditions": "50 µM", "endpoint": "inhibition", "value": "41.3%"}
{"Structure (SMILES)": "Cc1ccc(Cn2cc(C(=O)N[C@H]3CCCC[C@@H]3O)c3c(F)cc(F)cc32)cn1", "target": "CHRM1 (Homo sapiens, UniProt P11229)", "assay": "calcium mobilization, positive allosteric modulator", "system": "CHO", "conditions": "together with: acetylcholine EC20", "scale": "relative to: acetylcholine maximum", "endpoint": "maximal response", "value": "83 ± 6%"}
{"Structure (SMILES)": "O=C(/C=C/c1ccc(O)cc1)c1ccc(N2CCNCC2)cc1", "target": "BACE1", "assay": "enzyme activity, inhibitor, fluorescence", "conditions": "10 µM", "endpoint": "remaining activity", "value": "51.2%"}
{"Structure (SMILES)": "COc1cncc(B(O)O)c1", "target": "ampC", "endpoint": "ligand efficiency", "value": 0.66}
{"Structure (SMILES)": "CC(C)P(=S)(NP(=S)(C(C)C)C(C)C)C(C)C", "target": "Alpha-amylase (Bacillus subtilis, UniProt P00691)", "assay": "fluorescence quenching", "conditions": "concentration not given, 310 K", "endpoint": "number of binding sites", "value": "0.91 ± 0.06"}
{"Structure (SMILES)": "CN1C(=O)C2(Cc3ccc(CC45SSC(CO)(C(=O)N4C)N(C)C5=O)cc3)SSC1(CO)C(=O)N2C (racemic)", "target": "Histone acetyltransferase p300, CH1 domain (EP300, Homo sapiens, UniProt Q09472)", "assay": "SPR", "conditions": "p300 CH1 domain GST fusion", "scale": "relative to: without DTT over 100 µM DTT", "endpoint": "affinity loss of oxidized form", "value": "36 fold"}
{"Structure (SMILES)": "CSCC[C@H](N)C(=O)N[C@@H](C)C(=O)N[C@@H](C)C(=O)N[C@H](C(=O)N[C@@H](C)C(=O)NCC(=O)N[C@@H](CC(C)C)C(=O)N[C@@H](Cc1ccc(O)cc1)C(=O)NCC(=O)N[C@@H](CC(C)C)C(=O)NCC(=O)N[C@@H](CCCCN)C(=O)N[C@@H](CCCCN)C(=O)N[C@@H](CCCNC(=N)N)C(=O)N[C@@H](CCC(N)=O)C(=O)N[C@@H](Cc1c[nH]cn1)C(=O)N[C@@H](CCCNC(=N)N)C(=O)N[C@@H](CCCCN)C(=O)N[C@@H](CCCCN)C(=O)N[C@@H](CCC(N)=O)C(N)=O)C(C)C", "target": "Sh (Drosophila melanogaster, UniProt P08510, A391C/C301S/C308S/del6-46/T449V)", "assay": "channel block", "conditions": "0.5 µM, before MTSES modification", "endpoint": "fast time constant", "value": "37 ms"}
{"Structure (SMILES)": "CC(=O)NC(Cc1ccc(Br)c(Cl)c1)C(=O)N[C@@H](C)C(=O)N1CCC[C@H]1C(=O)N1CCC[C@H]1C(=O)N[C@@H](CCC(=O)O)C(=O)N[C@@H](Cc1c[nH]cn1)C(=O)N[C@@H](CO)C(=O)N[C@H](C(=O)N[C@@H](C)C(N)=O)[C@@H](C)OP(=O)(O)O (stereo partly shown)", "target": "CHUK (Homo sapiens, UniProt O15111)", "conditions": "10 µM", "endpoint": "inhibition", "value": "4.03 ± 0.11%"}
{"Structure (SMILES)": "CCN(CC)CCOc1ccc(-c2nnn(Cc3ccc(OC)cc3)c2N)cc1", "target": "TGF-beta receptor type-1, with Smad2 (TGFBR1, Homo sapiens, UniProt P36897)", "assay": "TGFBR1-SMAD2 interaction, pull-down", "conditions": "10 µM", "endpoint": "binding", "value": "no effect"}
{"Structure (SMILES)": "CC(=O)N[C@@H](Cc1ccccc1)C(=O)N[C@@H](Cc1ccccc1)C(=O)N[C@@H](Cc1c[nH]c2ccccc12)C(=O)N[C@@H](CCCNC(=N)N)C(=O)N[C@@H](CC(C)C)C(=O)N[C@@H](CCCNC(=N)N)C(=O)N[C@@H](CCCNC(=N)N)C(=O)N[C@H](C)C(=O)N[C@@H](CCCNC(=N)N)C(=O)N1CCC[C@H]1C(=O)N[C@@H](CCCCN)C(N)=O", "target": "Oprk1 (Rattus norvegicus, UniProt P34975)", "assay": "agonist", "system": "CHO", "conditions": "10 µM", "endpoint": "adenylyl cyclase activity", "value": "108 ± 5 % control"}
{"Structure (SMILES)": "CN(C)CCCN1c2ccccc2Sc2ccc(Cl)cc21", "target": "srtA (Staphylococcus aureus, UniProt Q2FV99)", "assay": "binding, fluorescence quenching", "endpoint": "Stern-Volmer constant", "value": "6300 L/mol"}
{"Structure (SMILES)": "CCN(Cc1ccccc1)C(=O)CCc1nc(CN2CCN(C(=O)Cc3ccc(OC)c(OC)c3)CC2)no1", "target": "Scn10a (Rattus norvegicus, UniProt Q62968)", "assay": "sodium current, whole-cell patch clamp", "system": "rat DRG neurons", "conditions": "10 µM", "scale": "relative to: control, towards hyperpolarisation", "endpoint": "inactivation curve shift", "value": "16.1 mV"}
{"Structure (SMILES)": "OC(COCc1ccccc1Cl)CN1CC=C(c2c[nH]c3ccccc23)CC1 (racemic)", "target": "SLC6A3 (Homo sapiens, UniProt Q01959)", "assay": "radioligand competition", "system": "whole cells", "conditions": "concentration not given, together with: [3H]WIN 35428", "scale": "relative to: (±)--1", "endpoint": "binding affinity fold decrease", "value": "1.6 fold"}
{"Structure (SMILES)": "O=C(/C=C/c1ccc(F)cc1)c1cc2ccccc2oc1=O", "target": "BACE1", "assay": "enzyme activity, inhibitor, fluorescence", "conditions": "10 µM", "endpoint": "remaining activity", "value": "81.2%"}
{"Structure (SMILES)": "CC[C@H](C)[C@H](NC(=O)[C@H](CCC(N)=O)NC(=O)[C@H](CC(C)C)NC(=O)[C@@H](NC(=O)CNC(=O)[C@H](Cc1ccc(O)cc1)NC(=O)[C@H](CC(=O)O)NC(=O)[C@@H](NC(=O)[C@H](CO)NC(=O)CNC(=O)[C@H](CC(=O)O)NC(=O)[C@@H](NC(=O)[C@H](CC(N)=O)NC(=O)[C@H](CCCNC(=N)N)NC(=O)[C@H](CC(N)=O)NC(=O)[C@@H](NC(=O)[C@H](C)NC(=O)[C@H](CCC(N)=O)NC(=O)[C@@H](NC(=O)[C@H](CC(N)=O)NC(=O)[C@H](Cc1ccccc1)NC(=O)[C@H](CC(N)=O)NC(=O)[C@H](CO)NC(=O)[C@H](CCC(=O)O)NC(=O)[C@H](Cc1ccccc1)NC(=O)[C@H](CCCCN)NC(=O)[C@H](C)NC(=O)[C@H](C)NC(=O)[C@H](CO)NC(=O)[C@@H](NC(=O)[C@H](Cc1c[nH]c2ccccc12)NC(=O)[C@H](CC(N)=O)NC(=O)CNC(=O)[C@H](CC(C)C)NC(=O)[C@H](CO)NC(=O)[C@H](Cc1ccc(O)cc1)NC(=O)CNC(=O)[C@H](CCCNC(=N)N)NC(=O)[C@H](Cc1ccc(O)cc1)NC(=O)[C@H](CC(N)=O)NC(=O)[C@@H](N)CC(=O)O)C(C)C)[C@@H](C)O)[C@@H](C)O)[C@@H](C)O)[C@@H](C)O)[C@@H](C)CC)C(=O)O", "target": "Periplasmic serine endoprotease DegP (degP, Escherichia coli, UniProt P0C0V0, S236A)", "assay": "oligomer formation, sedimentation velocity", "conditions": "30 µM, together with: protein 20 µM", "endpoint": "18-mers fraction", "value": "24%"}
{"Structure (SMILES)": "CCCCCCCCCCCCCCCc1ccc(COP(O)(O)=S)cc1", "target": "Autotaxin (ENPP2, Homo sapiens, UniProt Q13822)", "assay": "inhibitor", "conditions": "10 µM, 2 h, together with: FS-3 1 µM", "scale": "relative to: control", "endpoint": "remaining activity", "value": "15.2%"}
{"Structure (SMILES)": "O=C1OC(=O)C2C3C=CC(C3)C12 (stereo not shown)", "target": "ampC", "endpoint": "ligand efficiency", "value": 0.31}
{"Structure (SMILES)": "C[C@]1(COC(=O)c2ccc(O)c(O)c2)[C@H](C(=O)O)N2C(=O)/C(=C/c3ccccn3)[C@H]2S1(=O)=O", "target": "OXA-23 (Acinetobacter baumannii, UniProt Q9L4P2)", "assay": "enzyme activity, inhibitor, absorbance", "endpoint": "kinact", "value": "0.04 s⁻¹"}
{"Structure (SMILES)": "Cc1cc(-c2ccc3ccn(CC(=O)O)c(=O)c3c2)ccc1O[C@H]1O[C@H](CO)[C@@H](O)[C@H](O)[C@@H]1O", "target": "Type 1 fimbrin D-mannose specific adhesin, lectin domain (fimH, Escherichia coli K-12, UniProt P08191)", "assay": "binding, differential scanning fluorimetry", "scale": "higher = stronger binding", "endpoint": "melting temperature", "value": "74.8 °C"}
{"note": "For quick reference, copied from above:"}
{"Structure (SMILES)": "OC(COCc1ccccc1Cl)CN1CC=C(c2c[nH]c3ccccc23)CC1 (racemic)", "target": "SLC6A3 (Homo sapiens, UniProt Q01959)", "assay": "radioligand competition", "system": "whole cells", "conditions": "concentration not given, together with: [3H]WIN 35428", "scale": "relative to: (±)--1", "endpoint": "binding affinity fold decrease", "value": "1.6 fold"}
{"Structure (SMILES)": "CCN(Cc1ccccc1)C(=O)CCc1nc(CN2CCN(C(=O)Cc3ccc(OC)c(OC)c3)CC2)no1", "target": "Scn10a (Rattus norvegicus, UniProt Q62968)", "assay": "sodium current, whole-cell patch clamp", "system": "rat DRG neurons", "conditions": "10 µM", "scale": "relative to: control, towards hyperpolarisation", "endpoint": "inactivation curve shift", "value": "16.1 mV"}
{"Structure (SMILES)": "CC[C@H](C)[C@H](NC(=O)[C@H](CCC(N)=O)NC(=O)[C@H](CC(C)C)NC(=O)[C@@H](NC(=O)CNC(=O)[C@H](Cc1ccc(O)cc1)NC(=O)[C@H](CC(=O)O)NC(=O)[C@@H](NC(=O)[C@H](CO)NC(=O)CNC(=O)[C@H](CC(=O)O)NC(=O)[C@@H](NC(=O)[C@H](CC(N)=O)NC(=O)[C@H](CCCNC(=N)N)NC(=O)[C@H](CC(N)=O)NC(=O)[C@@H](NC(=O)[C@H](C)NC(=O)[C@H](CCC(N)=O)NC(=O)[C@@H](NC(=O)[C@H](CC(N)=O)NC(=O)[C@H](Cc1ccccc1)NC(=O)[C@H](CC(N)=O)NC(=O)[C@H](CO)NC(=O)[C@H](CCC(=O)O)NC(=O)[C@H](Cc1ccccc1)NC(=O)[C@H](CCCCN)NC(=O)[C@H](C)NC(=O)[C@H](C)NC(=O)[C@H](CO)NC(=O)[C@@H](NC(=O)[C@H](Cc1c[nH]c2ccccc12)NC(=O)[C@H](CC(N)=O)NC(=O)CNC(=O)[C@H](CC(C)C)NC(=O)[C@H](CO)NC(=O)[C@H](Cc1ccc(O)cc1)NC(=O)CNC(=O)[C@H](CCCNC(=N)N)NC(=O)[C@H](Cc1ccc(O)cc1)NC(=O)[C@H](CC(N)=O)NC(=O)[C@@H](N)CC(=O)O)C(C)C)[C@@H](C)O)[C@@H](C)O)[C@@H](C)O)[C@@H](C)O)[C@@H](C)CC)C(=O)O", "target": "Periplasmic serine endoprotease DegP (degP, Escherichia coli, UniProt P0C0V0, S236A)", "assay": "oligomer formation, sedimentation velocity", "conditions": "30 µM, together with: protein 20 µM", "endpoint": "18-mers fraction", "value": "24%"}
{"Structure (SMILES)": "COc1cncc(B(O)O)c1", "target": "ampC", "endpoint": "ligand efficiency", "value": 0.66}
